Results collected from several papers.
Lines come from different studies, so protocols differ. “And” joins repeats or separate records; there may be more than shown.
Target: Protein kinase C eta type (PRKCH, Homo sapiens, UniProt P24723)

With `COc1c(Cl)cccc1Nc1c(-c2ccncc2C#C[C@@]2(C)CCCN2C(=O)/C=C/CN(C)C)[nH]c2c1C(=O)NCC2` the remaining binding was 83% (cell-free assay, competition with immobilised ligand; 3 µM).
`O=c1c(-c2ccc(Cl)c(CN3CCOCC3)c2)coc2cc(O)ccc12` has a remaining activity of 104% (enzyme activity, inhibitor; 1 µM).
`C=CC(=O)N1Cc2nc(-c3cc(-c4cc(Cl)cnc4Cl)c(F)cc3F)n(-c3ccncn3)c2C1` has an inhibition of 1.7% (cell-free assay; 1 µM).
With `Cc1cccc(O[C@H]2CCC[C@@H](C(C)CNCc3ccncc3)C2)c1` (relative stereo) the inhibition was 3% (enzyme activity; 1 µM).
The remaining activity of `Nc1ncc(-c2cc(-c3cnn(CC(F)(F)F)c3)ncc2F)nc1C(=O)NC1CNCC(F)C1` (centres unmarked) is reported as 90.2% (enzyme activity; 1 µM; baseline: DMSO control).
With `CN1CCN(Cc2ccc(-c3ccc(CO[C@H]4CCC[C@@H]4NC(=O)c4cc(-c5cnn(C)c5)cnc4N)cc3)cc2)CC1` the inhibition was 2% (enzyme activity, inhibitor; 0.1 µM).
The remaining binding of `Cc1cnc2nc1Nc1cccc(c1)COC/C=C/COCc1cc(ccc1OCCN1CCOCC1)N2` is reported as 100% (binding; 0.1 µM).
With `Cc1ccc(-c2c(/C=C(\C#N)C(=O)NC(C)C)n(CCCO)c3ncnc(N)c23)cc1` the remaining binding was 90% (cell-free assay, competition with immobilised ligand; 1 µM).
`CNC1C[S+]2CC[S+]3CC[S+](C1)[Ru-4]321([N]=C=S)[n]2c3ccc(OC)cc3c3c4c(c5cc(F)c[n+]1c5c32)C(=O)NC4=O` (centres unmarked) has a remaining binding of 82% (KinomeScan; 0.1 µM; baseline: untreated).
For `C=CC(=O)N1CCCC(n2c(=O)c3ncccc3n(Cc3ccc(Oc4ccccc4)cc3)c2=O)C1` (centres unmarked), the remaining binding was 92% (cell-free assay, competition with immobilised ligand; 1 µM).
Under “activity vs control”, `CNC(=O)C[C@H](Cc1ccc(C#N)cc1)NC(=O)c1cc(-c2ccc(CN[C@H](C)c3ccc(C)cc3)o2)ccc1Cl` is recorded as 120% (enzyme activity, inhibitor; 1 µM).
The inhibition of `C=CC(=O)Nc1cccc(-c2cnc3[nH]cc(C(=O)NC(C)(C)C)c3n2)c1` is reported as -1% and 5% (kinase activity; 0.1 µM).
With `CN1CC[C@@H](COc2cnc(C#N)cc2-c2ccn3nc(NC(=O)C4CC4)cc3c2)C1` the inhibition was -17% (enzyme activity, inhibitor; 1 µM).
The inhibition of `NC(=O)[C@@H](O)C[C@H]1CCc2sc3ncnc(O[C@H]4CC[C@H](N5CCOCC5)CC4)c3c21` is reported as 10% (enzyme activity, inhibitor; 10 µM).

Repeated from above:
With `CN1CC[C@@H](COc2cnc(C#N)cc2-c2ccn3nc(NC(=O)C4CC4)cc3c2)C1` the inhibition was -17% (enzyme activity, inhibitor; 1 µM).
For `C=CC(=O)N1CCCC(n2c(=O)c3ncccc3n(Cc3ccc(Oc4ccccc4)cc3)c2=O)C1` (centres unmarked), the remaining binding was 92% (cell-free assay, competition with immobilised ligand; 1 µM).
